Experimental data of several laboratories.
Each line is one published result; not all experiments were run side by side. “And” joins repeats or separate records; there may be more than shown. Numbers after ± are the reported error.
PIK3CB with p85 alpha: Phosphatidylinositol 4,5-bisphosphate 3-kinase catalytic subunit beta isoform, with p85 alpha (PIK3CB, Homo sapiens, UniProt P42338)
Chain of UniProt P42338 (whole entry, looked up): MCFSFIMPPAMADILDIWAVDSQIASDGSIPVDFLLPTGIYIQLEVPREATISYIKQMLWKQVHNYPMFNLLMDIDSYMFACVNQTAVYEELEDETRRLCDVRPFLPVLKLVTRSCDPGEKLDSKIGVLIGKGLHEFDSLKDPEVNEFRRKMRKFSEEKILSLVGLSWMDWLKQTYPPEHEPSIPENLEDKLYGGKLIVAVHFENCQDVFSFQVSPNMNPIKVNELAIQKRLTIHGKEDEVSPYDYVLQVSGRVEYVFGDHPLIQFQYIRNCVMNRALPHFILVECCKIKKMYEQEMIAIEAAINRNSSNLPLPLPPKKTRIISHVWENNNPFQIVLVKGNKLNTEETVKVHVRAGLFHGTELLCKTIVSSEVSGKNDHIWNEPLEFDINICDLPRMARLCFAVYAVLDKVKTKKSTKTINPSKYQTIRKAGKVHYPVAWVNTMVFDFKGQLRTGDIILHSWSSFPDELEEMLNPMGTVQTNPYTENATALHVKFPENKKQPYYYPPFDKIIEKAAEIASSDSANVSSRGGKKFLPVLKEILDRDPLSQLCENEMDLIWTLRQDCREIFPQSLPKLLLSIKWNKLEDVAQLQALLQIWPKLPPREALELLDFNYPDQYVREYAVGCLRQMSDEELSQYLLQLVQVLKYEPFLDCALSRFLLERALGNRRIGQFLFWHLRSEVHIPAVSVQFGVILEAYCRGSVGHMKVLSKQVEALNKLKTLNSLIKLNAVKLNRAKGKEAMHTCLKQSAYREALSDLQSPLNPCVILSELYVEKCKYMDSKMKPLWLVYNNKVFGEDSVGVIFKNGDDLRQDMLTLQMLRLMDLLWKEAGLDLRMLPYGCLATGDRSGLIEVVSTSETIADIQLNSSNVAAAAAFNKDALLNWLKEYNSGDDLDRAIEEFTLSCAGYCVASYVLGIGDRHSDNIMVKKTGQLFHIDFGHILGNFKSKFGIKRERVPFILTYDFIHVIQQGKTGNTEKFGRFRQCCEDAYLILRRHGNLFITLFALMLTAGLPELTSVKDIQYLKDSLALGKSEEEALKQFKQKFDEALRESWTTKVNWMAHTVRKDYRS
PIK3CB: Phosphatidylinositol 4,5-bisphosphate 3-kinase catalytic subunit beta isoform (PIK3CB, Homo sapiens, UniProt P42338)

COC(=O)CCSc1nc2n(n1)C(c1cccc(OC)c1)C(C(=O)Nc1cncc(C)c1)=C(C)N2 (stereo not shown)
IC50 (PIK3CB with p85 alpha; enzyme activity, inhibitor, ADP-Glo): 3.1 µM

Nc1ccc(C(=O)NC2=Nc3ccccc3C3=NCCN23)cn1
IC50 (PIK3CB; enzyme activity, inhibitor, radiometric): 0.0493 µM

O=C(/C=C/c1ccccc1)Oc1ccc2c(c1)O/C(=C\C=C\c1ccccc1)C2=O
IC50 (PIK3CB with p85 alpha; enzyme activity, inhibitor, ELISA): > 1 µM

N#Cc1c(N)nc(N)nc1OCC1CCCCC1
IC50 (PIK3CB; enzyme activity, inhibitor): 18 µM and 23 µM

CC(=O)c1cnc(N)nc1N1CC[C@H]1c1nn2ccc(Cl)c2c(=O)n1-c1ccccc1
Kd (PIK3CB with p85 alpha; surface plasmon resonance; 25 °C): 0.64 µM

C/C(=N\NC(N)=S)c1c(O)c2ccccc2oc1=O
IC50 (PIK3CB with p85 alpha; kinase activity, ADP-Glo): 0.174 ± 0.01 µM

O=C(NC1=Nc2ccccc2C2=NCCCN12)c1cccnc1
IC50 (PIK3CB; enzyme activity, inhibitor, radiometric): > 10 µM

Cc1ccc(CN2C(=O)/C(=N\c3ccc(Cl)cc3Br)c3ccccc32)cc1
IC50 (PIK3CB; enzyme activity, inhibitor, ADP detection): 0.00963 µM

COc1c(OCCCN)ccc2c1N=C(NC(=O)c1cccnc1)N1CCN=C21
IC50 (PIK3CB; enzyme activity, inhibitor, radiometric): 0.0223 µM

Cc1nc(NC(=O)N2CCCC2)sc1-c1csc(C(C)(C)C)n1
IC50 (PIK3CB; enzyme activity, inhibitor, TR-FRET): > 25 µM

Some of these lines once more:
O=C(NC1=Nc2ccccc2C2=NCCCN12)c1cccnc1
IC50 (PIK3CB; enzyme activity, inhibitor, radiometric): > 10 µM
